Results pooled from the literature.
Values joined by “and” are separate records of one study, mostly repeats; a detail may differ. ± marks the error that the study gave.

With `CC(C)[C@H](NC(=O)[C@@H](NC(=O)[C@H](CCCNC(=N)N)NC(=O)[C@H](CCCNC(=N)N)NC(=O)[C@H](CCCNC(=N)N)NC(=O)[C@H](CCC(N)=O)NC(=O)[C@H](CCCNC(=N)N)NC(=O)[C@H](CCCNC(=N)N)NC(=O)[C@H](CCCCN)NC(=O)[C@H](CCCCN)NC(=O)[C@H](CCCNC(=N)N)NC(=O)CN)[C@@H](C)O)C(=O)N[C@H](C(=O)N[C@@H](CO)C(=O)N1CCC[C@H]1C(=O)O)[C@@H](C)O` the organ weight was 0.575 ± 0.033 g (ICR mice, female, brain; intranasal, 5 mg/kg daily, 4 weeks).
With `N=C(N)NCCC[C@H](NC(=O)[C@H](CCCNC(=N)N)NC(=O)[C@H](CCCNC(=N)N)NC(=O)[C@H](CCC(N)=O)NC(=O)[C@H](CCCNC(=N)N)NC(=O)[C@H](CCCNC(=N)N)NC(=O)[C@H](CCCCN)NC(=O)[C@H](CCCCN)NC(=O)[C@H](CCCNC(=N)N)NC(=O)CNC(=O)[C@H](Cc1ccc(O)cc1)NC(=O)[C@H](Cc1ccccc1)NC(=O)[C@H](Cc1ccccc1)NC(=O)[C@H](Cc1ccccc1)NC(=O)Cc1ccc2ccccc2c1)C(=O)O` the health score was 5 (C57BL/6 mice; intraperitoneal, 5 mg/kg, 24 h; direction not given).
With `CSCC[C@H](NC(=O)CNC(=O)[C@H](CCCCN)NC(=O)[C@H](CC(C)C)NC(=O)[C@@H]1CCCN1C(=O)[C@H](CO)NC(=O)[C@H](Cc1c[nH]cn1)NC(=O)[C@H](Cc1c[nH]c2ccccc12)NC(=O)[C@H](CCCNC(=N)N)NC(=O)[C@H](CC(C)C)NC(=O)[C@H](CCCNC(=N)N)NC(=O)[C@H](Cc1c[nH]c2ccccc12)NC(=O)[C@H](CS)NC(=O)CCCCCNC(=O)CN1CCN(CC(=O)O)CCN(CC(=O)O)CCN(CC(=O)O)CC1)C(=O)O` [copper-64 labelled] the tissue uptake was 6.17 %ID/g (male C57BL/6J mice, B16-F10 tumour, intestinal lymph node; intravenous, 1.85 MBq, 0.5 h).
With `CC(C)C[C@H](NC(=O)[C@H](C)NC(=O)[C@H](Cc1cn(CCc2ccc(O)c(C=O)c2)nn1)NC(=O)[C@H](Cc1ccccc1)NC(=O)CCNC(=S)Nc1ccc2c(c1)C(=O)OC21c2ccc(O)cc2Oc2cc(O)ccc21)C(=O)N[C@@H](CC(=O)O)C(=O)N[C@@H](Cc1c[nH]c2ccccc12)C(=O)N[C@@H](CO)C(=O)N[C@@H](Cc1c[nH]c2ccccc12)C(=O)N[C@@H](CC(C)C)C(=O)N[C@@H](CCC(N)=O)C(=O)N[C@H](C(=O)N[C@@H](CCC(=O)O)C(N)=O)[C@@H](C)O` the hydrodynamic diameter was 486 ± 43.3 nm (dynamic light scattering; PBS/DMSO; 10 nM).
For `CC(C)[C@@H]1NC(=O)CNC(=O)[C@H](CC(N)=O)NC(=O)[C@H](CCCNC(=N)N)NC(=O)[C@H](Cc2ccc(O)cc2)NC(=O)[C@H](C(C)C)NC(=O)[C@@H](NC(=O)[C@@H](NC(=O)[C@H](CC(N)=O)NC(=O)[C@H](Cc2c[nH]c3ccccc23)NC(=O)[C@H](C)NC(=O)[C@H](Cc2ccccc2)NC(=O)CNC(=O)[C@H](CCCCN)NC(=O)[C@H](Cc2ccccc2)NC(=O)[C@H](Cc2ccccc2)NC(=O)[C@H](CCCCN)NC(=O)OCC2c3ccccc3-c3ccccc32)C(C)C)CSSC[C@@H](C(=O)N[C@@H](Cc2c[nH]cn2)C(=O)N[C@@H](CCCNC(=N)N)C(=O)N[C@@H](CCCNC(=N)N)C(=O)N[C@@H](C)C(=O)N[C@@H](CC(N)=O)C(N)=O)NC(=O)[C@H](C(C)C)NC(=O)[C@H](CCCNC(=N)N)NC1=O`, the eosinophils was 2.42 ± 0.22% (ICR mouse, blood; intramammary, 5 mg/kg, day 5, 3 d dosing).
The gamma-glutamyltransferase activity of `O=C1NC2(CC2)COc2ncc(F)cc2[C@H]2COCCN2c2ccn3ncc1c3n2` is reported as 0.5 ± 0.3 U/L (Sprague-Dawley rat, female, serum; oral, 20 mg/kg/day, 4 weeks daily, end of treatment).
The SUVmean of `CC[C@H](C)[C@H](NC(=O)[C@H](CCCCN)NC(=O)CNC(=O)[C@H](CC(C)C)NC(=O)[C@H](Cc1ccccc1)NC(=O)[C@H](CCCCN)NC(=O)[C@H](CO)NC(=O)[C@H](Cc1ccccc1)NC(=O)[C@H](Cc1c[nH]c2ccccc12)NC(=O)[C@H](CCC(N)=O)NC(=O)[C@@H](NC(=O)[C@H](Cc1ccccc1)NC(=O)CCCCCNC(=O)CN1CCN(CC(=O)O)CCN(CC(=O)O)CCN(CC(=O)O)CC1)C(C)C)C(=O)N[C@@H](CCC(=O)O)C(=O)N1CCC[C@H]1C(=O)N[C@@H](CC(=O)O)C(=O)N[C@H](C(=O)N[C@@H](CO)C(=O)N[C@@H](CCC(N)=O)C(=O)N[C@H](C(=O)N[C@@H](CCC(N)=O)C(=O)N[C@@H](CC(=O)O)C(=O)N1CCC[C@H]1C(=O)N[C@@H](CC(N)=O)C(=O)N[C@@H](CC(=O)O)C(=O)N[C@@H](CCC(N)=O)C(=O)N[C@@H](Cc1ccc(O)cc1)C(=O)N[C@@H](CCC(=O)O)C(=O)N1CCC[C@H]1C(=O)N[C@@H](Cc1ccccc1)C(=O)O)C(C)C)C(C)C` [copper-64 labelled] is reported as 3.55 SUV (dynamic PET; mouse both sexes, CT26 tumour, checkpoint inhibitor-treated, tumour; intravenous, 100 µCi/mouse, 810 s).
For `COC(=O)[C@@H](Cc1ccc(-c2ccccc2)cc1)NC(=O)c1ccc(-c2ccc(OP(=O)(O)O)cc2)cc1`, “critical micelle concentration” read 92.6 µM (PBS; pH 7.4, before phosphatase treatment).
`CCN(CCCCOc1ccc(CCC(=O)N2CCC(Cc3ccccc3)CC2)cc1OC)Cc1ccccc1` has an excretion rate of 0.0322 ± 0.005% (Sprague-Dawley rats, both sexes, urine; oral gavage, 25 mg/kg, 0 to 6 h; relative to: dose).
`CC(C)C[C@H](NC(=O)[C@H](Cc1ccc(O)cc1)NC(=O)[C@H](C)NC(=O)[C@H](CC(N)=O)NC(=O)[C@H](CC(C)C)NC(=O)[C@H](C)NC(=O)[C@@H](NC(=O)[C@H](CCCCN)NC(=O)CNC(=O)[C@@H](NC(=O)[C@H](CC(N)=O)NC(=O)[C@H](CCCCN)NC(=O)CNC(=O)[C@@H](NC(=O)[C@H](Cc1c[nH]cn1)NC(=O)[C@H](C)NC(=O)[C@H](C)NC(=O)[C@H](CCCCN)NC(=O)[C@H](CCCCN)NC(=O)[C@H](Cc1ccccc1)NC(=O)[C@H](Cc1c[nH]c2ccccc12)NC(=O)[C@H](CCCCN)NC(=O)[C@H](CCCCN)NC(=O)[C@H](CS)NC(=O)CN)C(C)C)C(C)C)C(C)C)C(N)=O` — result for “acute toxic concentration”: 5 µM (zebrafish embryos 28 hpf, E3 medium; 1 h).
`COc1cnc2cccc(N3CCc4c(cc(Cn5ccnc5)cc4-c4cn(C)nc4C(F)(F)F)C3=O)c2c1` has a body weight of 30.7 ± 1.2 g (CD-1 mice; intraperitoneal, 100 mg/kg once daily, day 5).
`Cc1cc(-c2cc([C@@H](C)NC(=O)c3cc(OCCN(C)C)ccc3C)c3ccccc3n2)n(C)n1` gave a viability of -1.6% and -2.2% (Vero E6; 125 µM).
The tissue distribution of `CSCC[C@H](N)C(=O)N[C@@H](C)C(=O)N[C@@H](CCCNC(=N)N)C(=O)N[C@@H](CCCNC(=N)N)C(=O)N[C@@H](CC(=O)O)C(=O)N[C@@H](CCCCN)C(=O)N[C@H](C(=O)N[C@@H](CC(=O)O)C(=O)N[C@@H](Cc1ccccc1)C(=O)N[C@@H](C)C(=O)N[C@@H](CCCNC(=N)N)C(=O)N[C@@H](CCCNC(=N)N)C(=O)N[C@@H](CCCNC(=N)N)C(=O)N[C@@H](CCCNC(=N)N)C(=O)NCCCCCC(=O)NCCCCC(NC(=O)CCCCCNC(=O)[C@H](CCCNC(=N)N)NC(=O)[C@H](CCCNC(=N)N)NC(=O)[C@H](CCCNC(=N)N)NC(=O)[C@H](CCCNC(=N)N)NC(=O)[C@H](C)NC(=O)[C@H](Cc1ccccc1)NC(=O)[C@H](CC(=O)O)NC(=O)[C@@H](NC(=O)[C@H](CCCCN)NC(=O)[C@H](CC(=O)O)NC(=O)[C@H](CCCNC(=N)N)NC(=O)[C@H](CCCNC(=N)N)NC(=O)[C@H](C)NC(=O)[C@@H](N)CCSC)[C@@H](C)O)C(=O)NCCCCC(NC(=O)C(CCCCNC(=O)CCCCCNC(=O)[C@H](CCCNC(=N)N)NC(=O)[C@H](CCCNC(=N)N)NC(=O)[C@H](CCCNC(=N)N)NC(=O)[C@H](CCCNC(=N)N)NC(=O)[C@H](C)NC(=O)[C@H](Cc1ccccc1)NC(=O)[C@H](CC(=O)O)NC(=O)[C@@H](NC(=O)[C@H](CCCCN)NC(=O)[C@H](CC(=O)O)NC(=O)[C@H](CCCNC(=N)N)NC(=O)[C@H](CCCNC(=N)N)NC(=O)[C@H](C)NC(=O)[C@@H](N)CCSC)[C@@H](C)O)NC(=O)CCCCCNC(=O)[C@H](CCCNC(=N)N)NC(=O)[C@H](CCCNC(=N)N)NC(=O)[C@H](CCCNC(=N)N)NC(=O)[C@H](CCCNC(=N)N)NC(=O)[C@H](C)NC(=O)[C@H](Cc1ccccc1)NC(=O)[C@H](CC(=O)O)NC(=O)[C@@H](NC(=O)[C@H](CCCCN)NC(=O)[C@H](CC(=O)O)NC(=O)[C@H](CCCNC(=N)N)NC(=O)[C@H](CCCNC(=N)N)NC(=O)[C@H](C)NC(=O)[C@@H](N)CCSC)[C@@H](C)O)C(N)=O)[C@@H](C)O` (stereo partly shown) is reported as 4.05% (C57BL/6 mouse female, spine; dose not given, 6 h; relative to: total).
The logD of `COc1ccccc1C(NS(=O)(=O)c1cc2ccc(O)nc2cc1Cl)C(=O)N(CC(=O)NCCn1cc(COCCOCCOCCNc2cccc3c2C(=O)N(C2CCC(=O)NC2=O)C3=O)nn1)Cc1cccs1` (mixture of isomers) is reported as 2.5 (fast-gradient HPLC; pH 7.4).
`CCOC(=O)CNC(=O)CN1CCN(CC(=O)NCC(=O)OCC)CCN(CC(=O)NCC(=O)OCC)CCN(CC(=O)NCC(=O)OCC)CC1.[Eu+3]` gave a heart rate of 255 bpm (isolated perfused rat heart; concentration not given, after buffer washout).
For `O=C(c1cc(Cc2n[nH]c(=O)c3ccccc23)ccc1F)N1CC(CNC2CC2)C1`, the haematocrit was 36.2 ± 4.7% (Wistar Han rat, male, blood; oral, 60 mg/kg daily, 4 weeks).
`CC(CCC(=O)NCC(=O)O)C1CCC2C3C(O)CC4CC(OC5OC(C(=O)O)C(O)C(O)C5O)CCC4(C)C3CCC12C` (stereo not shown) — result for “ratio of metabolic ratios”: 1.88 (item: glucuronide to parent ratio; men, plasma; dose not given; relative to: T/C over T/T).
`Cc1ccc(OCCN(C)C)cc1C(=O)N[C@H](C)c1cc(-c2cnn(CC(C)(C)O)c2)nc2ccccc12` has a viability of 125% and 100% (Vero E6; 15.62 µM).
Under “mean corpuscular haemoglobin concentration”, `COc1ccc(CNc2ccc3c(c2)S(=O)(=O)C=C3)cc1` is recorded as 295 g/L (male C57BL/6 mice, blood; intraperitoneal, 5 mg/kg, day 8, group average).
